Experimental data from different studies.
Each numbered part is a random draw from the data of one study; scales do not carry over between parts.

Sample 1
Target: Histone acetyltransferase KAT6A, winged helix 2, GST fusion (KAT6A, Homo sapiens, UniProt Q92794, residues 85-181)
Method: protein binding microarray
Form: double-stranded DNA, one strand shown
Sample: in vitro
Tested at: not given
Notes: 8-mer, flanks averaged, mean of 2 arrays, mostly near background
Relative to: not given
Reading: higher = stronger binding
Residues (chain): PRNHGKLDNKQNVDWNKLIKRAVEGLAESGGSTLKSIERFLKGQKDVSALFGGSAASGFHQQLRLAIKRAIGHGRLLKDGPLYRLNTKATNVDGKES
`GGAAATGA` gave an E-score of 0.0472.
`CACCACGA` has an E-score of 0.0783.
With `AAAAACGC` the E-score was 0.175.

Sample 2
Target: Interferon regulatory factor 7, full length, phosphomimetic (IRF7, Homo sapiens, UniProt Q92985, residues 1-503, S471D/S472D/S475D/S476D/S477D/S483D/S484D/S487D)
Chain of UniProt Q92985 (whole entry, unmodified, looked up): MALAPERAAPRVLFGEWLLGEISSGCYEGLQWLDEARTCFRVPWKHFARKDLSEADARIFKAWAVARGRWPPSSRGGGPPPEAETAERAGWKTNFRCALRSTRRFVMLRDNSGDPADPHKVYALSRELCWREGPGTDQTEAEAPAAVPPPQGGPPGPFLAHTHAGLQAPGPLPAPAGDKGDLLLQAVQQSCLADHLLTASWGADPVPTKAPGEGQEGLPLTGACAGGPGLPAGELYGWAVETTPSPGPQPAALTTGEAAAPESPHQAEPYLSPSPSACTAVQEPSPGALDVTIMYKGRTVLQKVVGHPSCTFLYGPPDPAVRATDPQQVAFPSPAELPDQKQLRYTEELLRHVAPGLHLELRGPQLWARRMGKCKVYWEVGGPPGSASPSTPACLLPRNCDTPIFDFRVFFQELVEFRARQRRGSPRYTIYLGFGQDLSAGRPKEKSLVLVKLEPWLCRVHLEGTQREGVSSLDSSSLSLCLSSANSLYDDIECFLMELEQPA
Method: protein-binding microarray
Form: double-stranded DNA, one strand shown
Sample: in vitro
Tested at: 2200 nM top
Notes: 60-bp whole probe
Added: salmon DNA 0.4 mg/ml
Relative to: random background probes
Reading: higher = stronger binding
`GCCTAGCACTTAGATCTCGGTATCGATTAGTGCTAGGTCTTGATTCGCTTGACGCTGCTG` — result for “fitted relative affinity”: 0.404 z-score.
`GCCTAGCACTTAGGTTTCGGGACTGTGTTAGTGCTAGTCTTGATTCGCTTGACGCTGCTG` — result for “fitted relative affinity”: 3.23 z-score.
`GCCTAGCACGACGGTTGCCTTATCCTGACGTGCTAGGTCTTGATTCGCTTGACGCTGCTG` — result for “fitted relative affinity”: 0.598 z-score.

Sample 3
Target: Protein max, full length (MAX, Homo sapiens, UniProt P61244-2, residues 1-151)
Method: protein-binding microarray
Form: double-stranded DNA, one strand shown
Sample: in vitro
Tested at: not given
Notes: k-mer, scored over probes, only values ≥0.25
Reading: higher = stronger binding
`ATAGCATG` has an E-score of 0.373.
The E-score of `ACGAGGAC` is reported as 0.39.
For `CAACCACG`, the E-score was 0.398.

Other studies, line by line
The fold induction of `PhoQ, residues 284 288 289 292 302 303 ALSMDL` is reported as 15.2 (PhoP, residues 12 14 15 18 19 TTLRV (Escherichia coli, UniProt P23836); Sort-seq, measured: YFP reporter; E. coli; PhoQ-PhoP variant library, added: 10 µM Mg2+; relative to: high Mg2+ state, higher = stronger signaling).

Repeated from above (sample 2):
`GCCTAGCACTTAGGTTTCGGGACTGTGTTAGTGCTAGTCTTGATTCGCTTGACGCTGCTG` — result for “fitted relative affinity”: 3.23 z-score.
